Results of several laboratories.
A part holds a random share of what one study measured. Positions count from the first letter of the parent shown.
Chain of UniProt P20309 (whole entry, looked up): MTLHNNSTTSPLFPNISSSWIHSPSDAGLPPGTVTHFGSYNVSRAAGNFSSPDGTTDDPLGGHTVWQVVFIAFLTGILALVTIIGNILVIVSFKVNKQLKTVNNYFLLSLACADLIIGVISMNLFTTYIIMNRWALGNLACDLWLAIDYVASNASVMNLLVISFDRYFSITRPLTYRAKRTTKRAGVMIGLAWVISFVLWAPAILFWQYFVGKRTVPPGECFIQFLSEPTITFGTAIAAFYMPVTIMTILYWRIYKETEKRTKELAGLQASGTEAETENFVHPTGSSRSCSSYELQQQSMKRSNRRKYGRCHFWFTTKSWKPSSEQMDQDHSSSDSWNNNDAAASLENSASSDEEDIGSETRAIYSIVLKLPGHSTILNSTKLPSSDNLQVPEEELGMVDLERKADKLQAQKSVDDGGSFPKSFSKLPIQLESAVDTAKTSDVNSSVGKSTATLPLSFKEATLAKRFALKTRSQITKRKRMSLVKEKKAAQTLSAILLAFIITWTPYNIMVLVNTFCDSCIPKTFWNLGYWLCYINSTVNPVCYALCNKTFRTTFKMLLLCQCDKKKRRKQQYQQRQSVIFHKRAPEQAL

Block 1 — method: protein-binding microarray; molecule type: double-stranded DNA, one strand shown; medium: in vitro; concentration: 250 nM; setting: 60-bp whole probe; with: salmon DNA 0.4 mg/ml; relative to: random background probes; direction: higher = stronger binding; constant ends, left off below: GCCTAGCAC … GTCTTGATTCGCTTGACGCTGCTG
Target: Interferon regulatory factor 5, full length, phosphomimetic (IRF5, Homo sapiens, UniProt Q13568-2, residues 1-514, K96S/S451D/S453D/S456D/S462D)
| Strand | log fluorescence [z-score] |
| --- | --- |
| CTAGATTTCAGTATCGATTAGTGCTAG | 8.35 |
| GACGTTATCAGTATCGAGACGTGCTAG | 3.13 |
| TTAGGTCTCGGTATCGGTTAGTGCTAG | 5.44 |
| ATCTCACTCTAATCTCACTCTGTGCTA | 0.86 |
| GACGGCCTGCTTATCCTGACGTGCTAG | -0.625 |
| TCAGATTTCCCCACCATACTGTGCTAG | 0.385 |
| TTGGGTCTCGGTCTCGGTTAGTGCTAG | 0.553 |
| GTAGGTTTCGGTCTCGGTTAGTGCTAG | 10.2 |

Block 2 — target: CCNA1, cyclin fold, Cln2 fusion (human); method: yeast growth competition, sequencing; medium: yeast; setting: strong parent motif; relative to: not given; direction: higher = stronger binding
Parent: viral docking peptide; TSVRRALFTGGSD; partner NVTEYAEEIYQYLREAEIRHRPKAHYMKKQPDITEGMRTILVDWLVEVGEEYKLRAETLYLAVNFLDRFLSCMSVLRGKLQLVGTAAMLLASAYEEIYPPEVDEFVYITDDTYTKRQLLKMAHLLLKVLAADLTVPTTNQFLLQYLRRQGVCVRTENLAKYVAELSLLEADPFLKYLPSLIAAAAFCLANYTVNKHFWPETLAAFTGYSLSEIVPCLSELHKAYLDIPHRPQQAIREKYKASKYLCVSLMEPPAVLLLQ
| Substitution | normalised enrichment score |
| --- | --- |
| TSVRRALTTGGSD [F8T] | -0.276 |
| TSVRRAKFTGGSD [L7K] | 0.0545 |
| TSVRRALFTGGWD [S12W] | 0.751 |
| TIVRRALFTGGSD [S2I] | 0.435 |
| TSVRRALQTGGSD [F8Q] | 0.249 |
| TSVRRCLFTGGSD [A6C] | 1.31 |
| TSQRRALFTGGSD [V3Q] | -0.169 |
| TSVRRALFTGNSD [G11N] | 1.17 |
| TSFRRALFTGGSD [V3F] | 0.04 |
| TSVMRALFTGGSD [R4M] | 0.298 |
| TSVRRALFTPGSD [G10P] | 1.28 |
| TSVRRALNTGGSD [F8N] | 0.188 |
| TSVRRALFNGGSD [T9N] | 0.953 |
| TSVRRALFTNGSD [G10N] | 1.27 |
| TSVRRALLTGGSD [F8L] | 0.315 |
| TSVGRALFTGGSD [R4G] | -0.772 |
| TVVRRALFTGGSD [S2V] | 0.728 |
| TSVRRALFTQGSD [G10Q] | 1.33 |

Block 3 — method: RNA Bind-n-Seq; molecule type: RNA; medium: in vitro; concentration: 365 nM; relative to: no-protein control; direction: higher = stronger binding
Target: RNA binding protein fox-1 homolog 2, RRM domain, GST-SBP tag (RBFOX2, Homo sapiens, UniProt O43251-10, residues 100-194)
Setting: natural RNA segment, single round, ends assumed
Constant ends, left off below: GGGAGUUCUACAGUCCGACGAUC … UGGAAUUCUCGGGUGCCAA
Target sequence (chain): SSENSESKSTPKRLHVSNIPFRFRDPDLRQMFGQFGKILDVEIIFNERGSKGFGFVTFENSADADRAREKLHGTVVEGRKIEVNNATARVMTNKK
| Strand | RBNS enrichment (R) |
| --- | --- |
| CAGCUCAUGCUUUUUUAUGUAGGACUAGCUUACCUGAUUUUAAUGAAAAUCACAUUUUGAUACAAACACCAGAUUUGAAAGUUCAAUGUGUUUGAUCUCAGGAGUCCAAA | 0.35 |
| UUGCACAUGCUAGGCAAGCUCUCUACCCUGAGCUACGUACAUCCUAGCCCUUAGAACUACCACCCUGAAGCAUCUUUGUUUCCUGUGUUCAGACGCAGACGAAGACCAAC | 0.332 |
| GACAGCUCUGCAUGUACUUGUGUUUUACGGCCUCAAGCAGAAUAAGGGACCUCCUCCUUAUUUCUGACUCAUAUCUAAGUAAGGUUCCCCAGGACAGCCACAGUUGUACU | 5.8 |
| ACCUUGGACUUGAGGACCUACCUGAUGGGACGUUUCCACGUGUCUCUAGAGAAGGAUUCCUGGAUCUAGCUGGUCACGACGAUGUUUUCACCAAGGUCACAGGAGCAUUG | 0.222 |
| UCAGAGUUAAGUCAAGGAGUGUUCUUUGCCCCAGUCUCCCUAAGACAGUGCCUAUACAUUGGACAAAAAGUCCAAGGAGAGCCAAACUAGUGCAGUAAACGUUUGUACCC | 0.405 |
| GCCCACGAUAGACCAGCUGUAGCUCAUUCCAGCCUGUACCUUGGAUGAGGGGUAGCCUCCCACUGCAUCCCAUCCUGAAUAUCCUUUGCAACUCCCCAAGAGUGCUUAUU | 0.659 |
| GCCUGGGUUACAUAGGAAAUGCACCCUGAGGUUUUAAUAAAAGCCCCUAUGGCUAUAACUUUAAAUAAACUAAACCAAAAAUGUUAUUGAUGUUUUAUAUAUAGAGAGUA | 0.87 |
| UUAUUUUUACUCAGUGACAUAAUUUUUAGUUUUAUUCCUCAUAGCAAAAGGAAAAAAAAAAUCCCAAUCCUCAAAAGGUCAAGGCCCCGUCCCCUGUUGUCGGUGAUUUG | 0.571 |

Block 4 — observed: peptide-MHC binding; molecule type: peptide; concentration: concentration not given
Target: HLA class I histocompatibility antigen, C alpha chain, allele C*04:01 (Homo sapiens, UniProt P10321)
| Molecule | binding |
| --- | --- |
| SMNYPNSYK | inactive |
| KVADVDLAVPV | inactive |
| WYDWQQVPF | active |

Further values, each from its own experiment
| SMILES | target | observed | concentration | measurement | result |
| --- | --- | --- | --- | --- | --- |
| Cc1cc2c(-c3ccco3)cnc(N[C@H]3CCN(C)C[C@@H]3C(=O)NC3CCCCC3)c2[nH]c1=O | Muscarinic acetylcholine receptor M3 (CHRM3, Homo sapiens, UniProt P20309) | ligand displacement | 10 µM | inhibition | 28.9% |
